Assay results collected from several papers.
Compare with care: the assays were run in different laboratories. Numbers after ± are the reported error.
Target: Cytochrome P450 3A4 (CYP3A4, Homo sapiens, UniProt P08684)
Chain of UniProt P08684 (whole entry, looked up): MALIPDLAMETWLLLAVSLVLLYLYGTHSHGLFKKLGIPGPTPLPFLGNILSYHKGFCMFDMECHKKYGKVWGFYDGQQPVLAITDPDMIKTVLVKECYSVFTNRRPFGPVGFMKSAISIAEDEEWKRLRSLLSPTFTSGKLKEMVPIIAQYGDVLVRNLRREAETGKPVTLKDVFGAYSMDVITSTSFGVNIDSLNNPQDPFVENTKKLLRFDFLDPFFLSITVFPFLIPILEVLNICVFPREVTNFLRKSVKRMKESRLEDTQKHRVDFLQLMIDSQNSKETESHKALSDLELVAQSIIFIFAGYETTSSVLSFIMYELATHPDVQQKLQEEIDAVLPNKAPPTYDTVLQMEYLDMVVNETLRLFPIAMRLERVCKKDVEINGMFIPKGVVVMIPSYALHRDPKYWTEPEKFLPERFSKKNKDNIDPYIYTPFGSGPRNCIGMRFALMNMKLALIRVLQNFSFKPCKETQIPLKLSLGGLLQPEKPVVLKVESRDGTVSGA
Mode: inhibitor

`O=c1nc(NO)ccn1[C@@H]1O[C@H](CO)[C@@H](O)[C@H]1O` gave an IC50 of > 100 µM (enzyme activity; human, liver microsomes; 10 min, pH 7.4, testosterone probe).
`C[C@]1(O)CCCN(c2nc(Nc3ccc(S(=O)(=O)N[C@H]4CC[C@H](CN5CCN(c6ccc(C7CCC(=O)NC7=O)cc6F)CC5)CC4)cc3)ncc2C(F)(F)F)C1` (stereo partly drawn) gave an IC50 of > 10 µM (time-dependent inhibition; 30 min preincubation, with: without NADPH).
The IC50 of `COc1ccc(-c2cccc(S(=O)(=O)N[C@@H](Cc3cccc(C(=N)N)c3)C(=O)N3CCC(NC(=O)NC4CCCCC4)CC3)c2)c(OC)c1` is reported as 2 µM (enzyme activity; testosterone probe).
`NC(=O)c1c(F)ccc(OCc2nc3cc(Cl)cnc3s2)c1F` gave an IC50 of > 33.7 µM (enzyme activity, fluorescence).
`CC(Cc1cc2c(cc1OCc1ccccc1)OCO2)CS(=O)(=O)c1ccccc1` (stereo not drawn) gave an IC50 of 0.13 µM (enzyme activity, fluorescence).
`C[C@](C(=O)NC1CCOCC1)(c1cncnc1)N(C(=O)[C@H](F)Cl)c1ccc(OC(F)(F)Cl)cc1` has an IC50 of > 50 µM (enzyme activity; 10 (unit not given)).
The IC50 of `CCc1nc(N)nc(N)c1C#CC(C)c1cc(-c2cc(C)nc(C)c2)ccc1Cl` (stereo not drawn) is reported as 43 µM (enzyme activity, fluorescence; 30 min).
`O=C1c2oc3cc(O)c(O)cc3c2C(=O)c2oc3cc(O)c(O)cc3c21` gave an IC50 of 11.3 µM (midazolam 1'-hydroxylation; pooled human liver microsomes; 60 min, pH 7.4, 37 °C, preincubation 0 min without NADPH).
With `COc1ccc(-c2cccc(S(=O)(=O)N[C@@H](Cc3cccc(C(=N)N)c3)C(=O)N3CCN(C(=O)NC4CCCCC4)CC3)c2)c(OC)c1` the IC50 was 6.2 µM (enzyme activity; testosterone probe).
`COc1ccc2c(c1OCc1ccccc1)C[C@@H](C(=O)O)N(c1nc3ccc(C#N)cc3o1)C2` has an IC50 of > 50 µM (enzyme activity; human, liver microsomes; 15 min, pH 7.4, midazolam probe).
`N=C(N)c1cccc(C[C@H](NS(=O)(=O)c2cccc(-c3cc(CO)ccc3Cl)c2)C(=O)N2CCC(CCNC(=O)NC3CCCCC3)CC2)c1` gave an IC50 of 0.3 ± 0.07 µM (enzyme activity, fluorometric; human liver microsomes; 15 min, 37 °C).
`CC1CCC2(OC1)OC1CC3C4CC=C5CC(OC6OC(CO)C(OC7OC(CO)C(O)C7O)C(O)C6OC6OC(C)C(O)C(O)C6O)CCC5(C)C4CCC3(C)C1(O)C2C` (stereo not drawn) gave a Ki of 2.38 µM (enzyme activity; human, liver microsomes; pH 7.4, testosterone probe).

Some of these lines once more:
`O=C1c2oc3cc(O)c(O)cc3c2C(=O)c2oc3cc(O)c(O)cc3c21` gave an IC50 of 11.3 µM (midazolam 1'-hydroxylation; pooled human liver microsomes; 60 min, pH 7.4, 37 °C, preincubation 0 min without NADPH).
